Assay results collected from several papers.
Every numbered part comes from another study and shows a few of its results, in no order.

Block 1 — method: protein-binding microarray; form: double-stranded DNA, one strand shown; medium: in vitro; concentration: 250 nM; notes: 60-bp whole probe; added: salmon DNA 0.4 mg/ml; baseline: random background probes; direction: higher = stronger binding
Target: Interferon regulatory factor 7, full length, phosphomimetic (IRF7, Homo sapiens, UniProt Q92985, residues 1-503, S101K/S471D/S472D/S475D/S476D/S477D/S483D/S484D/S487D)
Constant ends, left off below: GCCTAGCAC … GTGCTAGGTCTTGATTCGCTTGACGCTGCTG
Target sequence (chain): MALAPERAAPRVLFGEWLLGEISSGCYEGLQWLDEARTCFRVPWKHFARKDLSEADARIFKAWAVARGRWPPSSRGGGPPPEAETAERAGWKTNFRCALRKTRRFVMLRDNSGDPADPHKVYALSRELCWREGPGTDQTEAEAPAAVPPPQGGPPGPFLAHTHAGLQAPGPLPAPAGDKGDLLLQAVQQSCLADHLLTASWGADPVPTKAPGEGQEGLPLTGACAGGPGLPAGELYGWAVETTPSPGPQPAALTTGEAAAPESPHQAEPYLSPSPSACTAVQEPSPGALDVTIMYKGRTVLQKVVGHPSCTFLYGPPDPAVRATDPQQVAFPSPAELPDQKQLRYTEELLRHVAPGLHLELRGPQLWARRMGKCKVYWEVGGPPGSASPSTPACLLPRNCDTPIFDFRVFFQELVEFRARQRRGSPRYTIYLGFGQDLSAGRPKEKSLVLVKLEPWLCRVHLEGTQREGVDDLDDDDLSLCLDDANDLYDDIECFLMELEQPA
Strand | log fluorescence [z-score]
GACGGTTTCGGTATCGGGGC | 9.87
GACGGTCTCAGTCTCGAGAC | 0.0921
ACTAATTTTCATTTTCCAAA | 2.26
TTAGGTATTCTTTTCCTTTA | 0.862
GACGTTATCAGTCTCGAGAC | 0.688

Block 2 — method: universal PBM; form: double-stranded DNA, one strand shown; medium: in vitro; concentration: 600 nM; direction: higher = stronger binding
Target: Sal-like protein 4, full length isoform A (SALL4, Homo sapiens, UniProt Q9UJQ4, residues 1-1053)
Chain of UniProt Q9UJQ4 (whole entry, looked up): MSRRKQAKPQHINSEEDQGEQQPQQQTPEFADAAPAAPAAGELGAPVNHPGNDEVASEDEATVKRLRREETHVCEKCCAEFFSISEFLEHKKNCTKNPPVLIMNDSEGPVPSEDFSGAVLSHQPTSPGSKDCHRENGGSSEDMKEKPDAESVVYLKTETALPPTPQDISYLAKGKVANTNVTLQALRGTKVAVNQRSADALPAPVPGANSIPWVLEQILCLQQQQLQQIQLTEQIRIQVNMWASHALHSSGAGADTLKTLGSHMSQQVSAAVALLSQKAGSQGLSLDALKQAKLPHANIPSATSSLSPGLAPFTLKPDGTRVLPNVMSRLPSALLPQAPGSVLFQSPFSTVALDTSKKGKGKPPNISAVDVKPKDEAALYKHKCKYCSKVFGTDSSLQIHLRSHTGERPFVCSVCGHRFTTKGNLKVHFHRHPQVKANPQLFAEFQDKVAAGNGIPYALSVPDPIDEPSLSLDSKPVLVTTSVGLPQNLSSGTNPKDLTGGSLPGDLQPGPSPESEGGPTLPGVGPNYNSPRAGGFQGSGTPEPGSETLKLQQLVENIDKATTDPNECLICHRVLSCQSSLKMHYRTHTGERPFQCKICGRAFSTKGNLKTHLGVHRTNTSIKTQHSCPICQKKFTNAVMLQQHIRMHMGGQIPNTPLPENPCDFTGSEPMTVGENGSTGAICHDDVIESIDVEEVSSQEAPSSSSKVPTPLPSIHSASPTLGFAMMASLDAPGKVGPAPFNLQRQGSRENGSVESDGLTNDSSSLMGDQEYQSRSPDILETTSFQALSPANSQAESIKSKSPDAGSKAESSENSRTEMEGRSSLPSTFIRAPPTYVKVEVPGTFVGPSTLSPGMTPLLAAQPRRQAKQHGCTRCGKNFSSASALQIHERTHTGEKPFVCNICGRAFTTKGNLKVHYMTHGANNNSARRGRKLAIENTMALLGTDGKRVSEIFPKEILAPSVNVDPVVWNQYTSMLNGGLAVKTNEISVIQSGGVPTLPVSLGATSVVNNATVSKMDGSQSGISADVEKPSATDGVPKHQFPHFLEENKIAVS
Notes: 8-mer, flanks averaged, mean of replicates
Strand | E-score
CTAGCTTC | -0.131
AAGCCGAT | 0.0333
ATAATTCC | 0.352
TCGAAACA | 0.162
CTCGCAAC | 0.0412

Block 3 — method: protein binding microarray; form: double-stranded DNA, one strand shown; medium: in vitro; concentration: not given; baseline: not given; direction: higher = stronger binding
Target: Histone acetyltransferase KAT6A, winged helix 2, GST fusion (KAT6A, Homo sapiens, UniProt Q92794, residues 85-181)
Notes: 8-mer, flanks averaged, mean of 2 arrays, mostly near background
Residues (chain): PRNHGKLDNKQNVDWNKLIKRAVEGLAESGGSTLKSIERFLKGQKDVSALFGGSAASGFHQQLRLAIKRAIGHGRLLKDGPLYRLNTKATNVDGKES
Strand | E-score
GCGTAAGA | 0.0407
CCCCCTCC | 0.184
AGGACCAT | -0.17
AAACGCGG | 0.0645
AAGTGGGA | 0.1

Other studies, line by line
Molecule | target | assay | test system | conditions | scale | quantity | value
PhoQ, residues 284 288 289 292 302 303 SLGVVW | PhoP, residues 12 14 15 18 19 LHSVQ (Escherichia coli, UniProt P23836) | Sort-seq, refers to: YFP reporter | E. coli | PhoQ-PhoP variant library, added: 10 µM Mg2+ | baseline: high Mg2+ state, higher = stronger signaling | fold induction | 13.6
